{"data": "Published values pooled from the literature", "note": "Every numbered part comes from another study and shows a few of its results, in no order. Substitutions count along the parent as printed."}
{"data": "Sample 1", "target": "RNA binding protein fox-1 homolog 2, RRM domain, GST-SBP tag (RBFOX2, Homo sapiens, UniProt O43251-10, residues 100-194)", "method": "RNA Bind-n-Seq", "molecule type": "RNA", "matrix": "in vitro", "tested at": "365 nM", "setting": "natural RNA segment, single round, ends assumed", "reference": "no-protein control", "direction": "higher = stronger binding", "Construct (chain)": "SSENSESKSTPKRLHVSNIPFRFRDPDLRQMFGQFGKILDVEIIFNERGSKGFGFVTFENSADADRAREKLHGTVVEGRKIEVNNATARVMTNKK"}
{"Oligonucleotide": "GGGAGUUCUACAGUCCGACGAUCCAGGCGAGGACCCUGAAUCAUUUGGAGCCCAGAAGGAGGCAGACUGGCCAGGUCUCACCACCUCAGUGUGCAGUUCAACUCCAUGCCAUCCCAUCAAGAUGGGUUAGUAGUGGAAUUCUCGGGUGCCAA", "RBNS enrichment (R)": 0.193}
{"Oligonucleotide": "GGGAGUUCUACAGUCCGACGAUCCCCCAAAUUUGUCUAAGCACUGGCCAGUCUGUUGUGGGCAUUGUUUUCUACAACCAAAUUCUGGGUUUUUUUCUUCUUUCUUUAAACAUAGAGGUACCACCACAAGGGAUUGGAAUUCUCGGGUGCCAA", "RBNS enrichment (R)": 1.08}
{"Oligonucleotide": "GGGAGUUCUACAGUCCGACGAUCUUUUACAGAAGAAACUAAAAGACAAAGGAAUAUUAAGCACCUGAGGGGUUUUUGUUUGAUUGAUUGUUUGUUUUUGGUAACUUUACAUCAAAUACACAUUUUAUGCUAGAUGGAAUUCUCGGGUGCCAA", "RBNS enrichment (R)": 0.571}
{"Oligonucleotide": "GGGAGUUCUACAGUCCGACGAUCAGAUGGGUAGAGUUGGGUUCUUGAGUUUUACCACCACUUAGUUCCCACUGAAUUUUGUAACUUCCUGUGUUUGCAUCCUCUGUUCCUAUUCUGCCCUUGCUCUGUGUCAUUGGAAUUCUCGGGUGCCAA", "RBNS enrichment (R)": 2.01}
{"Oligonucleotide": "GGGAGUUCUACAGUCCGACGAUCCAUGGGUGCUGUGAAGUUGAGAUGAGAAAAUGAUAUGACCUUGCUGUGGGUCUCUGGAUCCUGACCAGUUUGGACUCUGAGUUUUGGGGACCAGGACACUGCGAGGACAGUGGAAUUCUCGGGUGCCAA", "RBNS enrichment (R)": 0.932}
{"Oligonucleotide": "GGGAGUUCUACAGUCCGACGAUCCAGGGUAAGUUACUGGGAGUUUGCAAGACGGAGACAAGAUCCCUGGCUCUGCCGUGCUAAUCUUCAACGUCCAUGUCAUUGACUUCCACAACCCUGCGGAUGUGGUGGAAUGGAAUUCUCGGGUGCCAA", "RBNS enrichment (R)": 0.405}
{"Oligonucleotide": "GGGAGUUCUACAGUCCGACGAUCACCUUCUUCAGGCUGUCAAGCACGGGAGAGGAGACACAGUGGGAGGGAUUCAUAAGGAGAAAACAGCGUCUGGCAGGCAUGGCAGAAAGUGCUGUUAAGCAUUAGCUGGCUGGAAUUCUCGGGUGCCAA", "RBNS enrichment (R)": 1.11}
{"Oligonucleotide": "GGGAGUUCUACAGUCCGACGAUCUAUGCGUAUGUGCACGGGGCCGCCCGCCUGGACCUGGAGAAGGGACCUACGGACGCCUGGAAGCUGCGACGCCCUGCACUGCUCCCGCCUCCACCAGCGCCUCCCACUGAUGGAAUUCUCGGGUGCCAA", "RBNS enrichment (R)": 0.834}
{"Oligonucleotide": "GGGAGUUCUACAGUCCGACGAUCAAGGUGGACAUGGGAUUCCUCACUGGGAAGAGAGUUUUUCCCAUGCAGAGAGCCCCAUUAUCUCCUCUGGACCUGGGCCUUCGAACACCUGGGGGGUAUUUUUUGCCCUCUGGAAUUCUCGGGUGCCAA", "RBNS enrichment (R)": 0.254}
{"Oligonucleotide": "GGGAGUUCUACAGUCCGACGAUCCACCCAUUAAGUGGCUGCUGACUUAAAUGUGCUGGAACCAGCUGCUGAAGGUGGGGCCUAGGGAGGGGGCACUGAAGCAAUCUCCUGCUCCAACGCACAAUCCUUACUGUUGGAAUUCUCGGGUGCCAA", "RBNS enrichment (R)": 0.832}
{"Oligonucleotide": "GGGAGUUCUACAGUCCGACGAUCAUAUUCAAGGCAGUGGUCUGUGGCUACAGGAAGCUGGUUCUACUGUCUGCUUAACAAACUGUCUUUGUGAGUACAGAGAUUGGGUUUACCACUUCUGCUGAGGAGACCACUGGAAUUCUCGGGUGCCAA", "RBNS enrichment (R)": 0.379}
{"Oligonucleotide": "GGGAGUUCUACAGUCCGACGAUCAGAUUCAAUCGUAACUGUGUCAACAGUAUUGUGAAGUGAUCAUUUCUUGUAAAACUUGUAAAUAAACUAUCAUCUUUGUAGAUAUCUUAAAGGUGUAAAGUUUGCAAAUUUGGAAUUCUCGGGUGCCAA", "RBNS enrichment (R)": 0.295}
{"data": "Sample 2", "target": "CCND3, cyclin fold, Cln2 fusion (human)", "method": "yeast growth competition, sequencing", "matrix": "yeast", "setting": "weak parent motif", "reference": "not given", "direction": "higher = stronger binding", "starting sequence": "E2F1 docking peptide (human); PPVKRRLDLETDH; partner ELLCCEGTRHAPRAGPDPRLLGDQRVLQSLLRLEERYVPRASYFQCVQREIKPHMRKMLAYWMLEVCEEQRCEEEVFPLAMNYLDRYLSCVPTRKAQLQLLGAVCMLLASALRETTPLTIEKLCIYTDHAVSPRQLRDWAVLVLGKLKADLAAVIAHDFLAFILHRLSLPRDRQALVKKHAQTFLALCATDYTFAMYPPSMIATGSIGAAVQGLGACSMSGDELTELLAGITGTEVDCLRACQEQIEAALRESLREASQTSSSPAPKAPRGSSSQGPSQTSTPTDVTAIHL"}
{"Substitution": "PPDKRRLDLETDH [V3D]", "normalised enrichment score": 0.0652}
{"Substitution": "PPVKRDLDLETDH [R6D]", "normalised enrichment score": 0.027}
{"Substitution": "PPVKTRLDLETDH [R5T]", "normalised enrichment score": 0.044}
{"Substitution": "PPVKRRLDLEWDH [T11W]", "normalised enrichment score": 0.181}
{"Substitution": "PIVKRRLDLETDH [P2I]", "normalised enrichment score": 0.0599}
{"Substitution": "PPVKRRLDLESDH [T11S]", "normalised enrichment score": 0.157}
{"Substitution": "PPVKRRLDLSTDH [E10S]", "normalised enrichment score": 0.0805}
{"Substitution": "PPVKRRADLETDH [L7A]", "normalised enrichment score": 0.107}
{"Substitution": "PPVKRRNDLETDH [L7N]", "normalised enrichment score": 0.115}
{"Substitution": "PPVKRSLDLETDH [R6S]", "normalised enrichment score": 0.0761}
{"Substitution": "PPVKRRHDLETDH [L7H]", "normalised enrichment score": 0.0775}
{"Substitution": "PPVKRRLDLETDR [H13R]", "normalised enrichment score": 0.117}
{"Substitution": "PPVKRRLDLEEDH [T11E]", "normalised enrichment score": 0.165}
{"Substitution": "PPVKRRLDLMTDH [E10M]", "normalised enrichment score": 0.0709}
{"Substitution": "PPVGRRLDLETDH [K4G]", "normalised enrichment score": 0.0945}
{"Substitution": "IPVKRRLDLETDH [P1I]", "normalised enrichment score": 0.0923}
{"Substitution": "PPVTRRLDLETDH [K4T]", "normalised enrichment score": -0.00854}
{"Substitution": "PPVKRRLDLERDH [T11R]", "normalised enrichment score": 0.109}
{"Substitution": "PPVKRQLDLETDH [R6Q]", "normalised enrichment score": 0.181}
{"Substitution": "PPVKRRLDLETDQ [H13Q]", "normalised enrichment score": 0.114}
{"Substitution": "PPVKRRLDLETYH [D12Y]", "normalised enrichment score": 0.269}
{"Substitution": "PPVKFRLDLETDH [R5F]", "normalised enrichment score": 0.0526}
{"Substitution": "PPVKRRLDLETDF [H13F]", "normalised enrichment score": 0.144}
{"Substitution": "PPVLRRLDLETDH [K4L]", "normalised enrichment score": 0.0792}
{"Substitution": "PPVKRRLDLYTDH [E10Y]", "normalised enrichment score": 0.0967}
{"data": "Sample 3", "target": "Histone acetyltransferase KAT6A, winged helix 2, GST fusion (KAT6A, Homo sapiens, UniProt Q92794, residues 85-181)", "method": "protein binding microarray", "molecule type": "double-stranded DNA, one strand shown", "matrix": "in vitro", "tested at": "not given", "setting": "8-mer, flanks averaged, mean of 2 arrays, mostly near background", "reference": "not given", "direction": "higher = stronger binding", "Residues (chain)": "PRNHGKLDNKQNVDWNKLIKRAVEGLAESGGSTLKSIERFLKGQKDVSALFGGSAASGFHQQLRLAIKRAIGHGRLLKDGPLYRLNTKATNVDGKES"}
{"Oligonucleotide": "CACATAGA", "E-score": -0.0536}
{"Oligonucleotide": "ATCATAGC", "E-score": 0.0828}
{"Oligonucleotide": "ATAGAGAT", "E-score": -0.00509}
{"Oligonucleotide": "AAACTGAT", "E-score": -0.0289}
{"Oligonucleotide": "GGGGACCC", "E-score": 0.0924}
{"Oligonucleotide": "GATAATCC", "E-score": -0.0134}
{"Oligonucleotide": "CCTGATCC", "E-score": 0.0278}
{"Oligonucleotide": "CAGTTCGG", "E-score": 0.18}
{"Oligonucleotide": "GACAATGC", "E-score": 0.0537}
{"Oligonucleotide": "ACAATTAC", "E-score": -0.0994}
{"Oligonucleotide": "ATACTATA", "E-score": -0.0752}
{"Oligonucleotide": "AGGGGGAG", "E-score": 0.0479}
{"Oligonucleotide": "CGGCGGTA", "E-score": 0.172}
{"Oligonucleotide": "AATATCTC", "E-score": -0.0229}
{"Oligonucleotide": "GCATCTCA", "E-score": -0.0121}
{"Oligonucleotide": "TGCACACA", "E-score": -0.106}
{"Oligonucleotide": "CCACTAAC", "E-score": -0.0914}
{"Oligonucleotide": "ATAGGTCC", "E-score": 0.0495}
{"Oligonucleotide": "GGTTCGTA", "E-score": 0.0211}
{"Oligonucleotide": "ATTCACAC", "E-score": -0.00749}
{"Oligonucleotide": "ACCTCCCA", "E-score": -0.118}
{"Oligonucleotide": "GGCCGATA", "E-score": -0.0509}
{"Oligonucleotide": "ATACGAAG", "E-score": 0.0248}
{"Oligonucleotide": "CGACCTGC", "E-score": 0.217}
{"Oligonucleotide": "CTGAGCTA", "E-score": -0.0759}
{"data": "Sample 4", "target": "ABI1, truncated, D143A, DHFR fusion (Arabidopsis thaliana)", "method": "DHFR PCA, deep sequencing", "matrix": "yeast", "setting": "methotrexate growth selection, single substitutions", "together with": "(+)-ABA 17 µM", "reference": "wild-type fitted maximum", "direction": "higher = stronger binding", "starting sequence": "PYL1, truncated, DHFR fusion (Arabidopsis thaliana); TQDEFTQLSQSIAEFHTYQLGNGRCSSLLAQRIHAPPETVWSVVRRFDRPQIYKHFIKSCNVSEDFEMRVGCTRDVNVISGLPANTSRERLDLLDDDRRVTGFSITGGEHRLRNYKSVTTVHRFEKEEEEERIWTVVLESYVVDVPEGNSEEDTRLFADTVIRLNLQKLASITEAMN; partner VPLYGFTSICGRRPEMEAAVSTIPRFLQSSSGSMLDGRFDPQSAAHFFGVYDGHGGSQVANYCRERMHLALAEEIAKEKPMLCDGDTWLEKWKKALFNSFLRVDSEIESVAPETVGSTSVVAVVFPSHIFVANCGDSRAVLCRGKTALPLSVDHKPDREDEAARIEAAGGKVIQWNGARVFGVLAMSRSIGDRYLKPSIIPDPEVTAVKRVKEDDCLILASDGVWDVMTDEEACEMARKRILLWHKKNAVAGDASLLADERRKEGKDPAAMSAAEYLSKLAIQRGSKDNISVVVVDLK"}
{"Substitution": "E147G", "relative binding score [%]": 63.3}
{"Substitution": "V78G", "relative binding score [%]": 1.62}
{"Substitution": "V70Q", "relative binding score [%]": 54.3}
{"Substitution": "Q2C", "relative binding score [%]": 79.6}
{"Substitution": "D153I", "relative binding score [%]": -12.1}
{"Substitution": "T106Q", "relative binding score [%]": 68.2}
{"Substitution": "P83T", "relative binding score [%]": 19.8}
{"Substitution": "I172L", "relative binding score [%]": 85.6}
{"Substitution": "P50W", "relative binding score [%]": -9.96}
{"Substitution": "V143G", "relative binding score [%]": -4.62}
{"Substitution": "I52W", "relative binding score [%]": 63.4}
{"Substitution": "F157E", "relative binding score [%]": -7.32}
{"Substitution": "V78E", "relative binding score [%]": 15.5}
{"Substitution": "H16D", "relative binding score [%]": -8.96}
{"Substitution": "G102I", "relative binding score [%]": 0.796}
{"Substitution": "S80E", "relative binding score [%]": 4.57}
{"Substitution": "T6K", "relative binding score [%]": 88.3}
{"Substitution": "Q19K", "relative binding score [%]": 84.1}
{"Substitution": "K54V", "relative binding score [%]": -7.3}
{"Substitution": "N22R", "relative binding score [%]": 83.7}
{"Substitution": "T73A", "relative binding score [%]": 54.8}
{"Substitution": "K58A", "relative binding score [%]": 81}
{"note": "Excerpt of the above (sample 4):"}
{"Substitution": "I52W", "relative binding score [%]": 63.4}
{"Substitution": "F157E", "relative binding score [%]": -7.32}
{"Substitution": "V78E", "relative binding score [%]": 15.5}
{"Substitution": "H16D", "relative binding score [%]": -8.96}
{"Substitution": "G102I", "relative binding score [%]": 0.796}
